# Experimental data gathered from unrelated publications.
# Parts stem from different laboratories: compare values within a part only.

# Series 1 — technique: protein binding microarray; molecule type: double-stranded DNA, one strand shown; matrix: in vitro; tested at: not given; baseline: not given; direction: higher = stronger binding
# Target: Histone acetyltransferase KAT6A, both winged helices, GST fusion (KAT6A, Homo sapiens, UniProt Q92794, residues 1-181)
# Setting: 8-mer, flanks averaged, mean of 2 arrays, mostly near background
# Target sequence (chain): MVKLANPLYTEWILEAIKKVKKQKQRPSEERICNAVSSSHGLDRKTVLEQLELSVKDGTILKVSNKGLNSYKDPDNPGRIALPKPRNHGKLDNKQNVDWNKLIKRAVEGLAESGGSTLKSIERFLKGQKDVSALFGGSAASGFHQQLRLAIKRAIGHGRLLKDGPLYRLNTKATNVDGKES
Strand,E-score
AATAAGAT,-0.0632
CCAGTTAC,-0.197
CTCTCTTA,-0.301
ACACAGCG,0.292
AGTCTGCG,0.0197
ATTCTCCA,-0.125

# Series 2 — technique: RNA Bind-n-Seq; molecule type: RNA; matrix: in vitro; tested at: 365 nM; baseline: no-protein control; direction: higher = stronger binding
# Target: RNA binding protein fox-1 homolog 2, RRM domain, GST-SBP tag (RBFOX2, Homo sapiens, UniProt O43251-10, residues 100-194)
# Setting: natural RNA segment, single round, ends assumed
# All sequences stand within: GGGAGUUCUACAGUCCGACGAUC … UGGAAUUCUCGGGUGCCAA
# Construct (chain): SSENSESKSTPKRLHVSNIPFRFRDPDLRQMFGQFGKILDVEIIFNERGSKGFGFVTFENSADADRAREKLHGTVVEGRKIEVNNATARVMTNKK
Strand,RBNS enrichment (R)
CAUCUGCCACAUUGAUGAUUAAAUUAGCAGUUUAGAUAACUUGAGUCCCUUUCCCUUUAUAUUUGAGAUGAGGUCUAGAUAUGUAGUCCUGCCUGGCCUCCAAUUUGUAA,0.508
CAGCAUUUUCCUCUGCUUUGAAAGCCCCAGAAAUCAGUGUUGGCCAUGAUGACAACUACAGAAAAACCAGAGGCAGCUUCUUUGCCAAGACCUUUCAAAGCCAUUUUAGG,0.681
UCUGAUGCCAAGACAAAUAUUGGGAGCGAGCCUUCCUCACUAGCCAUGUCCAAAUAAUGAGCGUAUUUUCAUGUGGUCUUCACUGCAUUUGGUUUUGUUUCUGAUUUCAU,0.445
AUUACUUUUAUGAUAGUAGAAAUAUUAUAAGCCUAAGACAUGGACUAUCCAUUUUGUAAAACGGAUUUAAGGACAAUUAUCAGGUAUAAUUAAAAUUCUGUUGAAGAAGA,0.304
GCACCGCCCACCCACACCCCGUCUGCCCCUUGACCCCACACGCCGGGGCUGGCCCUGCCCUCCCCCACGGCCGUCCCUGACUUCCCAGCUGGCAGCGCCUCCCGCCGCCU,0.731
AACAAAGGGAAACAGAUAUUUGAUAUGAAAGCCAUAUGACAGUAGCUUGUGUCAUGGGGAAACAGUUUCUCCCUCUACUCACAACACUAAAGGGAAAAAGGUGGAUUCAG,0.789

# Series 3 — technique: protein-binding microarray; molecule type: double-stranded DNA, one strand shown; matrix: in vitro; tested at: not given; direction: higher = stronger binding
# Target: Protein C-ets-1 (ETS1, Homo sapiens, UniProt P14921, residues 1-441, K379A, full length assumed)
# Setting: k-mer, scored over probes, only values ≥0.25
# Construct (chain): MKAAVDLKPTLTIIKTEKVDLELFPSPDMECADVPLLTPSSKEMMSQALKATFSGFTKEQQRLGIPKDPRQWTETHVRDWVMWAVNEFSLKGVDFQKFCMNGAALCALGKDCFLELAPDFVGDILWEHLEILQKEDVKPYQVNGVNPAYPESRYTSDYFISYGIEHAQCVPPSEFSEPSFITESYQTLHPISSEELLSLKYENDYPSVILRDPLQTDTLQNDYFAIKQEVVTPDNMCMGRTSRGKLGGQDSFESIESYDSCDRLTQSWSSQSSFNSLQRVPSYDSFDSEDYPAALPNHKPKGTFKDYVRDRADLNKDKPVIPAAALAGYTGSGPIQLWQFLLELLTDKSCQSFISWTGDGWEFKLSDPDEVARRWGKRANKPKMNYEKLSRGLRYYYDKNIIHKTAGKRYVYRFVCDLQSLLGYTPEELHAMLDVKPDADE
Strand,E-score
AGACCGGC,0.275
CCCGCCGC,0.342
GGTTGTAC,0.251
CCGACAGG,0.322
ATATTTAC,0.274
CGGGGAAC,0.383

# Mixed results
Molecule,target,assay,system,setting,how to read,quantity,result
"PhoQ, residues 284 288 289 292 302 303 SVTLVV","PhoP, residues 12 14 15 18 19 LHHVQ (Escherichia coli, UniProt P23836)","Sort-seq, refers to: YFP reporter",E. coli,"PhoQ-PhoP variant library, together with: 10 µM Mg2+","baseline: high Mg2+ state, higher = stronger signaling",fold induction,2.01

# Excerpt of the above (series 3):
Strand,E-score
AGACCGGC,0.275
CCCGCCGC,0.342
GGTTGTAC,0.251
